Results gathered from unrelated publications.
Each line is one published result; not all experiments were run side by side. Several values in a cell are separate wells, animals, samples, runs or records. ± marks the error that the study gave. Converted amounts (≈) assume the structure as drawn.

| Compound | organism | test | test system | conditions | scale | endpoint | value |
| --- | --- | --- | --- | --- | --- | --- | --- |
| CN(C(=O)c1ccn2ncc(-c3ccc(C(N)=O)cc3)c2c1)c1ccc(C#N)cn1 | Cryptosporidium parvum |  | UGA1 Nluc, IFN-gamma knockout C57BL/6 mice, faeces | oral, 10 mg/kg daily, 408 h post infection, treatment days 11-17 | higher means more parasites | faecal Nluc luminescence | 174 a.u. and 712 a.u. and 24500 a.u. and 1700 a.u. and 285 a.u. and 239 a.u. |
| COc1ccc(C2=[N+]([O-])c3ccccc3N3CC(C)(C)CN=C23)cc1 | Bacteroides fragilis | microbial growth |  |  |  | MIC50 | 0.25 µg/mL (≈ 0.745 µM) |
| COC(=O)C1=CO[C@@H](C)[C@@H]2Cn3ccc4c5ccccc5nc-4c3C[C@H]12 | Plasmodium falciparum | growth, [3H]-hypoxanthine uptake | FCR3 | 72 h | reference: FCR3 IC50 over 3D7 IC50 | resistance index | 1.3 |
| CCOC(=O)C1(Cc2ccc([N+](=O)[O-])cc2)Oc2cc(F)ccc2N(Cc2ccc([N+](=O)[O-])cc2)C1=O (stereo not shown) | Amaranthus retroflexus | fresh weight, greenhouse postemergence |  | postemergence, 150 g ai/ha, 21 days |  | inhibition | 54.4 ± 4.98% |
| CC(C)[C@H]1NC(=O)[C@H](Cc2ccccc2)NC(=O)[C@@H](C(C)C)NC(=O)[C@@H](C)NC(=O)[C@H](CO)NC(=O)[C@@H](Cc2c(-c3ccc(-c4ccc5ccccc5c4)cc3)[nH]c3ccccc23)NC(=O)[C@@H](C)NC1=O | Vibrio vulnificus | broth dilution |  |  |  | MIC90 | > 50 µM |
| CC(C)C[C@H](NC(=O)[C@@H](N)CO)C(=O)N[C@@H](Cc1c[nH]c2ccccc12)C(=O)N[C@@H](CCC(=O)O)C(=O)N[C@@H](CC(N)=O)C(=O)N[C@@H](Cc1ccccc1)C(=O)N[C@@H](CCCCN)C(=O)N[C@@H](CC(N)=O)C(=O)N[C@@H](C)C(=O)NCC(=O)N[C@@H](CCCCN)C(N)=O | all tested microorganisms |  |  |  |  | geometric mean MIC | 256 µM |
| CNCCO.O=C(O)C(Cl)Cl | Amaranthus retroflexus | herbicidal activity |  | 15 mg/mL, 21 days, pre-emergence greenhouse |  | inhibition | 0% |
| O=[N+]([O-])c1ccc(C2=[N+]([O-])c3ccccc3N3CCCN=C23)cc1 | Bacteroides fragilis |  |  |  |  | MIC90 | ≤ 0.06 µg/mL |
| CC(C)CCCCCCCCC/C=C/C(=O)N[C@@H](CC(=O)O)C(=O)N[C@H]1CNC(=O)[C@@H]2CCCN2C(=O)[C@H](C(C)C)NC(=O)[C@@H](CN)NC(=O)CNC(=O)[C@H](CC(=O)O)NC(=O)CNC(=O)[C@H](CC(=O)O)NC(=O)[C@H](CC(=O)O)NC(=O)[C@H]2CCCCN2C1=O | Staphylococcus aureus | broth microdilution | BR-VRSA strain 880, Mueller-Hinton broth, Mg2+ 10 mg/L | 16 h, added: Ca2+ 1.0 mM |  | MIC | 8 µg/mL (≈ 6.27 µM) |
| COc1ccc(Cn2c3cc(=O)n(Cc4cccc(Cl)n4)c(C)c3c(=O)n2-c2ccccn2)cc1 | human respiratory syncytial virus |  | recombinant reporter virus | concentration not given, scale 0 to 100, added: cytidine 3.7 µM |  | normalized viral replication | 0 |
| CC1=C[C@@H](C)[C@H]2[C@@H]3C(=O)C(Cl)(Cl)C(=O)[C@H](C)C(=O)O[C@@H](C)/C=C/C=C\[C@@H](C)[C@@H]3C=C[C@@H]2C1 | Staphylococcus aureus |  | Newman mutant MT-3 |  | reference: parent strain | MIC fold shift | 16 |
| CC[C@H](C)CCCCC(=O)N[C@@H](CCN)C(=O)N[C@H](C(=O)N[C@@H](CCN)C(=O)N[C@H]1CCNC(=O)[C@H]([C@@H](C)O)NC(=O)[C@H](CCN)NC(=O)[C@H](CCN)NC(=O)[C@H](CC(C)C)NC(=O)[C@@H](CC(C)C)NC(=O)[C@H](CCN)NC1=O)[C@@H](C)O | Escherichia coli | daily serial passaging | ATCC 8739 | highest sub-MIC, 5 days | reference: initial MIC | MIC fold change | 1.95 |
| C[C@@H](N)[C@H](O)CCCCCCCC(=O)CCCCCCCCCCCCCC[C@@H](O[C@@H]1O[C@H](CO)[C@@H](O)[C@H](O)[C@H]1O)[C@@H](N)CO | Acinetobacter baumannii | resazurin | ATCC 19606 | 50 µM |  | growth inhibition | 93 ± 1.12% |
| CCCCCCCCC=CCCCCCCCCNC(=O)C(N)Cc1ccc(OP(=O)(O)COC(CO)Cn2ccc(N)nc2=O)cc1 (stereo not shown) | varicella-zoster virus | viral replication | VZV-ORF57-Luc, mouse | dose not given |  | duration of rebound suppression | ≤ 11 days |
| CC(C)[C@H]1NC(=O)[C@H](Cc2ccccc2)NC(=O)[C@@H](C(C)C)NC(=O)[C@@H](C)NC(=O)[C@H](CO)NC(=O)[C@@H](Cc2c(-c3ccc(-c4ccccc4)cc3)[nH]c3ccccc23)NC(=O)[C@@H](CO)NC1=O | Vibrio vulnificus | broth dilution |  |  |  | MIC90 | > 50 µM |
| Cc1cc(Cl)cc(S(C)=NC#N)c1NC(=O)c1cc(Br)nn1-c1ncccc1Cl (stereo not shown) | Spodoptera litura | leaf-dip | third instar larvae | 12.5 ppm, 24 h |  | mortality | 3.3% |
| CCc1cc(CCC(=O)O)nc(-c2nc(=O)c3ccc(F)cc3s2)c1 | Acinetobacter baumannii | cell growth, inhibitor | NCTC 13424 XDR | 5% CO2 |  | EC50 | > 100 µM |
| CCOC(=O)C1(Cc2ccccc2F)Oc2cc(F)ccc2N(Cc2ccccc2F)C1=O (stereo not shown) | Amaranthus retroflexus | fresh weight, greenhouse postemergence |  | postemergence, 150 g ai/ha, 21 days |  | inhibition | 44.6 ± 4.85% |
| NCCC[C@@H]1NC(=O)[C@@H](CCCN)NC(=O)[C@H](Cc2ccccc2)NC(=O)[C@@H](Cc2ccc(F)c(F)c2)NC(=O)[C@H](Cc2ccccc2)NC(=O)[C@@H](CCCN)NC1=O | Balamuthia mandrillaris | parasite growth, ATP luminescence |  |  |  | IC90 | > 20 µM |
| CCOC(=O)C1(Cc2ccc(-c3ccccc3)cc2)Oc2cc(F)ccc2N(Cc2ccc(-c3ccccc3)cc2)C1=O (stereo not shown) | Amaranthus retroflexus | fresh weight, greenhouse postemergence |  | postemergence, 150 g ai/ha, 21 days |  | inhibition | 55.4 ± 3.63% |
| FC(F)(F)c1cccc(CNc2nc(NC3CCN(Cc4ccccc4)CC3)c3nc[nH]c3n2)c1 | Cryptococcus neoformans | RNA-seq, item: SAC1 (CNAG_06080) |  | 48 µg/mL, 3 h | reference: untreated | mRNA fold change | 1.36 |
| CCc1nn(C)c2nc(-c3ccc(C(=O)O)cc3)nc(NCc3ccccc3)c12 | Cryptosporidium parvum |  | HCT-8 | 12 x EC90, 0 h | reference: DMSO control | parasite number | 109% and 93.3% and 101% and 96.8% |
| [O-][N+]1=C(c2ccc(Cl)cc2)C2=NCCCCN2c2ccccc21 | Bacteroides fragilis | microbial growth |  |  |  | MIC50 | 1 µg/mL (≈ 3.07 µM) |
| CC(C)[C@H]1NC(=O)[C@H](Cc2ccccc2)NC(=O)[C@@H](C(C)C)NC(=O)[C@@H](C)NC(=O)[C@H](C)NC(=O)[C@@H](Cc2c(-c3ccc(-c4ccc5ccccc5c4)cc3)[nH]c3ccccc23)NC(=O)[C@@H](C)NC1=O | Vibrio vulnificus | broth dilution |  |  |  | MIC90 | > 50 µM |
| CCOC(=O)C1(Cc2cccc(C)c2)Oc2cc(F)ccc2N(Cc2cccc(C)c2)C1=O (stereo not shown) | Amaranthus retroflexus | fresh weight, greenhouse postemergence |  | postemergence, 150 g ai/ha, 21 days |  | inhibition | 55.4 ± 6.18% |
| Cc1cc(C(=O)Nc2nc3cccc(C)c3n2[C@H]2CCCCN(C(=O)/C=C/CN(C)C)C2)ccn1 | Trypanosoma brucei | propidium iodide flow cytometry, item: S phase | bloodstream CLK1 over-expression induced | concentration not given |  | cell cycle distribution | 14.6% and 15.8% and 15% |
| C[N+]1=C2C(c3ccccc3)=[N+]([O-])c3ccccc3N2CCC1 | Bacteroides fragilis |  |  |  |  | MIC90 | 2 µg/mL |
| CC(C)[C@H](NC(=O)[C@H](CO)NC(=O)[C@@H](N)CC(=O)O)C(=O)N[C@H]1CSC(=O)[C@H](Cc2ccccc2)NC(=O)[C@H](Cc2ccc(O)cc2)NC(=O)[C@H](CO)NC(=O)[C@H](C)NC1=O | Staphylococcus epidermidis | safranin staining | RP62A | 10 µM, 37 °C | reference: DMSO control | biofilm dispersal | 46.7% |
